Measured values collected from several papers.
A part holds a random share of what one study measured. Positions count from the first letter of the parent shown.

Set 1
Target: CCNA2, cyclin fold, Cln2 fusion (human)
Technique: yeast growth competition, sequencing
Medium: yeast
Notes: strong parent motif
Relative to: not given
Reading: higher = stronger binding
Measurement: normalised enrichment score
Starting sequence: viral docking peptide; KGVKRKLFAEDSS; partner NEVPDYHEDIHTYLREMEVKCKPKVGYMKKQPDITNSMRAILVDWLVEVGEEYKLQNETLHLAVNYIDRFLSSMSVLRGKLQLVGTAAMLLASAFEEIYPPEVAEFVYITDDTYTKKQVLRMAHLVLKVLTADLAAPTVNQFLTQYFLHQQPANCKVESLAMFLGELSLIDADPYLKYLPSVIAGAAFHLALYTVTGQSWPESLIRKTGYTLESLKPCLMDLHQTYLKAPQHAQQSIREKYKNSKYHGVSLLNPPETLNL
KGVKRKCFAEDSS [L7C]: 0.874
KGVKRKLFAEDAS [S12A]: 6.43
KLVKRKLFAEDSS [G2L]: 6.13
KQVKRKLFAEDSS [G2Q]: 6.4
KGVKRTLFAEDSS [K6T]: 5.47
KGVKRKEFAEDSS [L7E]: 0.551
KGMKRKLFAEDSS [V3M]: 2.35
KGVKRKLFHEDSS [A9H]: 5.92
KGVKRKNFAEDSS [L7N]: 0.415
KGVKRKLFVEDSS [A9V]: 6.26
KGVKRKLFAEDNS [S12N]: 6.35
KGVKRSLFAEDSS [K6S]: 5.28
KGVKMKLFAEDSS [R5M]: 2.22
KGVKRKLFAERSS [D11R]: 5.64
KGVKRRLFAEDSS [K6R]: 6.94
KMVKRKLFAEDSS [G2M]: 6
KGVKRKLFAPDSS [E10P]: 6.26
KGVRRKLFAEDSS [K4R]: 7.18

Set 2
Target: Prothrombin, mature alpha-thrombin (F2, Homo sapiens, UniProt P00734)
Technique: aptamer microarray, sandwich
Molecule type: DNA with 2'F-ANA
Medium: in vitro
Concentration: 200 nM
Notes: whole 15-mer aptamer, many near background
With: Cy3 exosite-II aptamer, 400 nM
Reading: higher = stronger binding
Measurement: mean fluorescence intensity
Strand: GGTTGGTGTGGTTGG
2'F-ANA at 1 3 7 8 9 10 13 14: 61.9 a.u.
2'F-ANA at 2 4 5 6 8 10 12 13 14 15: 52.4 a.u.
2'F-ANA at 1 4 6 7 9 15: 107 a.u.
2'F-ANA at 3 4 7 8 9 12 13 14 15: 359 a.u.
2'F-ANA at 1 2 3 4 5 7 9 11 12 13 14: 50.8 a.u.
2'F-ANA at 2 4 5 7 8 11 12 13 15: 80.4 a.u.
2'F-ANA at 2 3 9 15: 760 a.u.
2'F-ANA at 1 2 5 10 11 13 14 15: 44.7 a.u.

Set 3
Target: BATF3, bZIP domain (human)
Technique: DHFR protein complementation
Medium: yeast
Notes: single substitutions, most at no-binding floor
Relative to: wild-type JUN-FOS pair
Reading: higher = stronger binding
Measurement: binding fitness
Starting sequence: JUN, bZIP domain (human); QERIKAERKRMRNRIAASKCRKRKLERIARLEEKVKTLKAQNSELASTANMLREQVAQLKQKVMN; partner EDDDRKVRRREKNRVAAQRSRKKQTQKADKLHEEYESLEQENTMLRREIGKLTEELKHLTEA
E54M: 0.166 natural log
A57N: 0.151 natural log
L38D: -1.24 natural log
M51T: 0.277 natural log
E32M: 0.115 natural log
Q41P: -0.948 natural log
A40G: 0.179 natural log
E54T: 0.159 natural log

Set 4
Target: Interferon regulatory factor 5, full length, phosphomimetic (IRF5, Homo sapiens, UniProt Q13568-2, residues 1-514, S451D/S453D/S456D/S462D)
Technique: protein-binding microarray
Molecule type: double-stranded DNA, one strand shown
Medium: in vitro
Concentration: 940 nM top
Notes: 60-bp whole probe
With: salmon DNA 0.4 mg/ml
Relative to: random background probes
Reading: higher = stronger binding
Measurement: fitted relative affinity
All sequences stand within: GCCTAGCAC … GTCTTGATTCGCTTGACGCTGCTG
TTAGATATCTGTATCGATTAGTGCTAG: 1.52 z-score
GTAGGTATCGGGTTTCGGTTAGTGCTA: 7.37 z-score
GACGATCTCCGTTTCGAGACGTGCTAG: 1.25 z-score
TTAGGACCGGGTCTCGGTTAGTGCTAG: 1.24 z-score
TTAGGTATCGACTATCCGTTAGTGCTA: 6.28 z-score
TTAGGATTGCTTATCCTTTAGTGCTAG: -0.368 z-score
TGAGGTTTCGGTCTCGGTTAGTGCTAG: 12.2 z-score
CTTTCTATCTCTGTTTTTGCGTGCTAG: 2.38 z-score

Mixed results
PhoQ, residues 284 288 289 292 302 303 GANMMA
fold induction (PhoP, residues 12 14 15 18 19 NMSFL (Escherichia coli, UniProt P23836); Sort-seq, refers to: YFP reporter; E. coli; PhoQ-PhoP variant library, with: 10 µM Mg2+; relative to: high Mg2+ state, higher = stronger signaling): 2.53

A few entries again (set 3):
E54T: 0.159 natural log
A40G: 0.179 natural log
E32M: 0.115 natural log
L38D: -1.24 natural log
